Published values gathered from unrelated publications.
Protocols differ between the studies behind these lines. Values joined by “and” are separate records of one study, mostly repeats; a detail may differ. ± gives the spread as reported.

`N#Cc1ccn2c(-c3ccncc3)c(-c3ccc(F)cc3)nc2c1`: “log2 fold change” 0.118 (kinase binding, competitor, MIB/MS competition, item: CMK1; Candida albicans cell lysate; 1 µM; baseline: DMSO).
For `NC(=O)c1cnc2[nH]ccc2c1N[C@@H]1[C@@H]2CC3C[C@H]1C[C@@](O)(C3)C2`, “CD4+ memory T-cell change” read 0.02% (flow cytometry; Japanese healthy men, blood; oral, 10 mg twice daily, 72 h after day 7 dose; baseline: baseline).
Under “Ang-2 tumour reduction rate constant”, `COc1cc2nccc(Oc3ccc(NC(=O)NC4CC4)c(Cl)c3)c2cc1C(N)=O` is recorded as -0.0144 /week (item: sum of target lesion diameters; human, RR-DTC patients; tumour growth model, point estimate).
`c1ccc(-c2n[nH]cc2-c2ccnc3ccccc23)nc1` — result for “log2 fold change”: 1.5 (kinase binding, competitor, MIB/MS competition, item: NPR1; Candida albicans cell lysate; 1 µM; baseline: DMSO).
For `N#Cc1ccc2c(c1)[C@H]1CCCN(C(=O)c3ccc4[nH]cnc4c3)[C@H]1C2`, “change from baseline” read -1.5 mmHg (item: diastolic blood pressure; human; 80 mg once daily, day 28, adjusted mean; baseline: placebo).
For `Cc1noc(C)c1-c1cc(C(O)(c2ccccn2)c2ccccn2)c2nc(C3CC3)[nH]c2c1`, the maximum inhibition was 24.2% (item: CCR2 expression; human, peripheral blood; 2 mg, day 1, 1599 study).
`N#Cc1ccc2c(c1)[C@H]1CCCN(C(=O)c3ccc4[nH]cnc4c3)[C@H]1C2`: “change in HOMA-IR” -41.4% (human, plasma; 20 mg, day 15, 360 h; baseline: placebo and baseline).
`Cc1cc(Nc2ccc(S(F)(F)(F)(F)F)cc2)n2nc(C(C)(F)F)nc2n1` has a DHO concentration of 1.94 ± 0.204 µM (item: dihydroorotate; female CD-1 mice, blood; oral, 300 mg/kg daily, 8 h after dose 10).
Under “disease activity index”, `Cc1cnc(Nc2ccc(OCCOc3ccc(/N=N/c4ccc(C(=O)NCCC(=O)O)cc4)cc3C(=O)O)cc2)nc1Nc1cccc(S(=O)(=O)NC(C)(C)C)c1` is recorded as 0 (mice, DSS-induced colitis; 10 mg/kg).
Under “annual tumour growth rate”, `CC(C)[C@H](C(=O)Nc1ccc(C(=O)NO)cc1)c1ccccc1` is recorded as 92.8 %/year (volumetric MRI; human, left IAC schwannoma; dose not given, end of treatment, day 57).
`O=C1Nc2cc3[nH]nc(-c4ccncc4)c3cc2CN1Cc1ccccc1`: “partial response, best response” 0% (RECIST v1.1; human, relapsed or refractory advanced solid tumours; intravenous, 11.3 mg/kg).
`C[C@@H](NC(=O)N1C(=O)[C@H](Cc2ccnc(N)c2)[C@H]1C(=O)O)C1CCCCC1` gave an ACT Emax of 1.13 (human; iv infusion, 1.0 mg/kg/h, 24 h, unit not given; baseline: baseline).
`Cc1oncc1C(=O)Nc1ccc(C(F)(F)F)cc1` gave a DHO concentration of 5.23 ± 1.53 µM (item: dihydroorotate; female CD-1 mice, blood; oral, 10 mg/kg daily, 8 h after dose 3, 10-day dosing).
The macrophage density of `O=P(O)(O)C(Cl)(Cl)P(=O)(O)O` is reported as 6.42 cells/mm² (immunostaining, item: F4/80; mouse, sham, meningeal perivascular; 23000 µg/mL).
`CCN(CC)CCNC(=O)c1cc(S(C)(=O)=O)cnc1OC.Cl` — result for “time on bar”: 0.93 s and 1.19 s and 1.82 s and 4.01 s and 1.09 s (catalepsy bar test; female CD-1 mice; intraperitoneal, 200 mg/kg, 90 min after dosing).
With `O=C(OC(C(F)(F)F)C(F)(F)F)N1CCN(Cc2cccc(Oc3ccccc3)c2)CC1` the k3 was 1.26 min⁻¹ (PET blocking study; rhesus monkey, brain THA; 0.3 mg/kg, compound pretreatment, added: [18F]T-401 tracer).
With `CSCCNc1nc(SCCC(F)(F)F)nc2c1ncn2[C@@H]1O[C@H](COP(=O)(O)OP(=O)(O)C(Cl)(Cl)P(=O)(O)O)[C@@H](O)[C@H]1O` the inhibition was 34.2 ± 22.7% (ADP-induced platelet aggregation, LTA; human patients, platelet-rich plasma; dose not given, 15 min, added: ADP 20 µM).
For `CCO[C@H]1CCN(Cc2c(OC)cc(C)c3[nH]ccc23)[C@H](c2ccc(C(=O)O)cc2)C1`, “PNH red cell clone size” read 79.6% (item: PNH-type erythrocytes; PNH patients, blood; 25 mg/100 mg, week 8, mean).
For `Cn1cc(Nc2nccc(-c3ccc4c(c3)CN(C3COC3)CC[C@H]4NC(=O)c3cn(C(C)(C)C)nn3)n2)cn1`, “pathway activation z-score” read 2.69 (item: PKCθ signaling in T-cells; splenic B cells, mice; 30 mg/kg, IgD-activated in vivo; baseline: vehicle, direction not given).
For `COc1cc2cc(-c3ccc(CC(=O)Nc4cc(C(C)(C)C(F)(F)F)no4)cn3)cnc2cc1OC`, “best overall response PR” read 25% (RECIST v1.1; human RET-altered solid tumours; 75 mg, phase I pooled).
`COc1ccccc1[C@H](Cn1c(=O)n(C(C)(C)C(=O)O)c(=O)c2c(C)c(-c3ncco3)sc21)OC1CCOCC1`: “blood LDL level” 120 ± 42.5 mg/dL (human; 50 mg, post-treatment).
With `CC(=O)NCC(=O)NCC(=O)N[C@H](C(=O)N[C@@H](Cc1ccc(O)cc1)C(=O)N[C@@H](CO)C(=O)N[C@H]1CSSC[C@@H](C(=O)N[C@@H](CCCNC(=N)N)C(=O)N2CCC[C@H]2C(=O)N[C@@H](CCC(N)=O)C(=O)N[C@@H](CCCNC(=N)N)C(=O)NCC(=O)NCCC(=O)N[C@@H](CCCCNC(=O)CN(CC(=O)NCCCC[C@H](NC(=O)CCNC(=O)CNC(=O)[C@H](CCCNC(=N)N)NC(=O)[C@H](CCC(N)=O)NC(=O)[C@@H]2CCCN2C(=O)[C@H](CCCNC(=N)N)NC(=O)[C@@H]2CSSC[C@H](NC(=O)[C@H](CO)NC(=O)[C@H](Cc3ccc(O)cc3)NC(=O)[C@@H](NC(=O)CNC(=O)CNC(C)=O)[C@@H](C)O)C(=O)N[C@@H](Cc3c[nH]cn3)C(=O)N[C@@H](Cc3ccccc3)C(=O)NCC(=O)N[C@@H](C)C(=O)N[C@@H](CC(C)C)C(=O)N[C@@H]([C@@H](C)O)C(=O)N[C@@H](Cc3c[nH]c4ccccc34)C(=O)N[C@@H](C(C)C)C(=O)N2)C(N)=O)C(=O)CCN)C(N)=O)NC(=O)[C@H](C(C)C)NC(=O)[C@H](Cc2c[nH]c3ccccc23)NC(=O)[C@H]([C@@H](C)O)NC(=O)[C@H](CC(C)C)NC(=O)[C@H](C)NC(=O)CNC(=O)[C@H](Cc2ccccc2)NC(=O)[C@H](Cc2c[nH]cn2)NC1=O)[C@@H](C)O` the haematocrit was 49.8% (healthy BALB/c mice; subcutaneous, 0.16 mg/kg, 6 d, single dose).
`Cc1n[nH]c2ccc(-c3cc(OC[C@@H](N)Cc4ccccc4)cnc3-c3ccoc3)cc12`: “log2 fold change” -2.22 (kinase binding, competitor, MIB/MS competition, item: RIM8; Candida albicans cell lysate; 10 µM; baseline: DMSO).
Under “best overall response PR”, `Cc1cc(C)c(CNC(=O)c2cc(Cl)c3c(c2C)O[C@@](C)([C@H]2CC[C@H](N(C)C)CC2)O3)c(=O)[nH]1` is recorded as 24% (IWG 2007 criteria; human, relapsed/refractory peripheral T-cell lymphoma; dose not given).
Under macrophage infiltration, `O=C(O)C1=CC(=C(c2ccc(O)c(C(=O)O)c2)c2ccc(O)c(C(=O)O)c2)C=CC1=O` is recorded as “decreased” (immunohistochemistry, item: F4/80; C57BL/6J mouse MC-38 tumour, tumour core and margin; peritumoral, dose not given; baseline: vehicle).
`N#Cc1ccc2c(-c3ccncc3)c(-c3ccc(F)cc3)nn2c1`: “log2 fold change” -0.379 (kinase binding, competitor, MIB/MS competition, item: IKS1; Candida albicans cell lysate; 100 nM; baseline: DMSO).
`Cc1cc(F)cc2c(CCC(=O)N[C@@H]3C(=O)NC[C@H]3O)c(-c3ccc(F)cc3)[nH]c12` gave a nephrin H-score of 101 and 100 and 99.5 and 110 and 112 (immunohistochemistry; mice, APOL1 G2, single copy, kidney; oral, 30 mg/kg twice daily, added: IFNγ plasmid injection; direction not given).
For `N#CCC1CCN(c2nc(Nc3ccc(N4CCC(O)CC4)cc3)c3c(=O)[nH]ncc3n2)CC1`, “fold change from baseline” read -1.2 (Olink multiplex, item: CD163; human, serum; 20 mg, day 29; baseline: baseline).
`Cc1ccc([C@@H]2O[C@H](CO)[C@@H](O)[C@H](O)[C@H]2O)cc1Cc1ccc(-c2ccc(F)cc2)s1` — result for “change in 24-h mean serum insulin”: -2.9 µU/mL (Japanese type 2 diabetes patients; 400 mg, day 16; baseline: day 0).
`CC(C)NCC(O)c1ccc(O)c(O)c1` (stereo not drawn) has a sarcomere length of 1.52 µm (ventricular cardiomyocytes, C57BL/6 mouse; dose not given, 0.836 s).
For `OC(CCN1CCCCC1)(c1ccccc1)C1CC2C=CC1C2` (stereo not drawn), “change, Gamma EEG power, in Fz-Cz” read 14% (resting-state EEG; healthy elderly humans; oral, 2 mg, eyes open, LS mean; baseline: baseline).
The sarcomere length of `O=C(O)CNC(=O)Cc1ccccc1` is reported as 1.65 µm (ventricular cardiomyocytes, C57BL/6 mouse; dose not given, 0.584 s).
`C[C@H](Oc1ccc(Br)cc1-c1ccon1)C(=O)O` — result for “difference from placebo”: 0.935% (response latency; human, tibialis anterior muscle; 1200 mg, 30 Hz+30 s).
`C[C@H]1C[C@H]2CSC(N)=N[C@@]2(c2nc(NC(=O)c3ccc(OC(F)F)cn3)cs2)CO1` — result for “percent change from baseline”: -35.4% (item: total Aβ; healthy adults, plasma; 12 mg single dose, 48 h post-dose; baseline: placebo).
For `C=Cc1c(C)c2cc3nc(c(CC(=O)O)c4[nH]c(cc5nc(cc1[nH]2)C(C)=C5CC)c(C)c4C(=O)O)[C@@H](CCC(=O)O)[C@@H]3C`, “CD80+ CD86+ dendritic cells” read 33.1% and 29.4% and 21.2% and 30.6% (flow cytometry; 4T1 tumour-bearing mice, lymph nodes; 2.5 mg/kg).
`C[C@@H]1CCC[C@H](n2cnc(-c3cc(Cl)ccc3-n3cc(Cl)nn3)cc2=O)c2cc(ccn2)-c2c(cnn2C(F)F)NC1=O` — result for “concentration for aPTT prolongation”: 2200 nM (rabbit plasma; IC2× aPTT, Actin FS reagent).
`COc1cc2c(cc1OC)C(=O)C(CC1CCN(Cc3ccccc3)CC1)C2` (stereo not drawn): platform crossings “increased” (Morris water maze; C57BL/6J mice, vascular dementia; 10.0 and 1.0 mg/kg).
`N=C(N)NCCC[C@H](NC(=O)[C@H](CCCNC(=N)N)NC(=O)[C@H](CCCCN)NC(=O)[C@H](CCC(N)=O)NC(=O)[C@H](CCCCN)NC(=O)[C@H](Cc1ccc(O)cc1)NC(=O)[C@@H](N)CCCCN)C(=O)N[C@@H](CO)C(=O)N[C@@H](Cc1ccc(O)cc1)C(=O)N[C@@H](CCCCN)C(=O)O` — result for “median tactile threshold change”: -1 (dentin hypersensitivity patients; 10 µg/tooth single, day 22, unit not given; baseline: baseline).
For `COc1ccc(-c2cncc(N[C@@H](C)c3cccc(NC(=O)c4cncc(C)c4)c3)n2)cc1OC`, the fold change was 2.98 (item: rno-miR-154-5p; rat SU5416/hypoxia model, lung; dose not given; baseline: SU5416/hypoxia vehicle).
Under Lamp1 expression, `O=c1cc(-c2ccc(O)cc2)oc2c([C@@H]3OC[C@H](O)[C@H](O)[C@H]3O)c(O)c([C@@H]3O[C@H](CO)[C@@H](O)[C@H](O)[C@H]3O)c(O)c12` is recorded as “increased” (HFpEF mice, heart; dose not given).
For `COc1cc(Nc2ncc3c(n2)-c2ccc(Cl)cc2C(c2c(F)cccc2OC)=NC3)ccc1C(=O)O`, “median response score” read 2 (mouse, NB-SD neuroblastoma xenograft; 10.4 mg/kg; direction not given).
For `CC1(C)CCC(CN2CCN(c3ccc(C(=O)NS(=O)(=O)c4ccc(NCC5CCOCC5)c([N+](=O)[O-])c4)c(Oc4cnc5[nH]ccc5c4)c3)CC2)=C(c2ccc(Cl)cc2)C1`, the EC50 was 1110 nM (cell killing, flow cytometry PI exclusion; canine blood CD21+ B cells, dog 34; 24 h).
Under “tumour growth inhibition”, `C=CCn1c(=O)c2cnc(Nc3ccc(N4CCN(C)CC4)cc3)nc2n1-c1ccc2c(n1)[C@@](O)(CC)CC2` is recorded as 26.2% (LS-513 xenograft, BALB/c nude mice; oral, 60 mg/kg once daily x 21, day 23; baseline: vehicle).
For `C1=C/COCc2cc(ccc2OCCN2CCCC2)Nc2nccc(n2)-c2cccc(c2)COC/1`, the hematocrit was 46.9% and 47.1% and 52.7% and 51.6% and 53.7% and 51.2% (BALB/c mice rhEPO-induced polycythemia; 120 mg/kg).
`CN[C@@H]1COc2c(S(=O)(=O)NC(=O)Nc3c4c(cc5c3CCC5)CCC4)cnn2C1` gave an inhibition of 99% (item: IL-1β; human participants, whole blood ex vivo; 450 mg single dose, 1 h, added: LPS/ATP; baseline: baseline).
